Measurements from different studies.
Compare with care: the assays were run in different laboratories. Numbers after ± are the reported error.
Proteasome subunit alpha type-2/Proteasome subunit alpha type-6 20S proteasome: Proteasome subunit alpha type-2/Proteasome subunit alpha type-6, 20S proteasome (Homo sapiens, UniProt P25787+P60900)
C1-hpah: p-hydroxyphenylacetate 3-hydroxylase, reductase component (C1-hpah, Acinetobacter baumannii, UniProt Q6Q271)
AKR1C1: Aldo-keto reductase family 1 member C1 (AKR1C1, Homo sapiens, UniProt Q04828)
T1: DNA hairpin, hairpin, TTTT loop; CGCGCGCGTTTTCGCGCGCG

For CCN(CC)C(=O)c1ccc(O)c(OC)c1, “bound ligand fraction” read 0.36 mol % (Heat shock protein HSP 90-alpha, N-terminal domain (HSP90AA1, Homo sapiens, UniProt P07900); binding, ligand-observed NMR titration; ligand to protein ratio 202).
CC(=O)N[C@@H](CCCNC(=N)N)C(=O)N[C@@H](CCCCN)C(=O)N[C@@H](CCCCN)C(=O)N[C@@H](Cc1ccc(O)cc1)C(=O)N[C@@H](CCCCN)C(=O)N[C@@H](Cc1ccccc1)C(=O)N[C@@H](CC(N)=O)C(=O)N[C@@H](CCC(=O)O)C(=O)N[C@@H](CC(=O)O)C(=O)N[C@H](C(=O)N[C@@H](CCC(=O)O)C(=O)N[C@@H](CCCNC(=N)N)C(=O)N[C@@H](CCCNC(=N)N)C(=O)N[C@@H](CCCNC(=N)N)C(=O)N[C@@H](Cc1ccccc1)C(=O)N[C@@H](CC(C)C)C(N)=O)[C@@H](C)O gave a Km of 393 ± 40 µM (EEF2K (Homo sapiens, UniProt O00418); substrate).
The specific activity of CCCCCCC(=O)Nc1ccc(OC)nc1C is reported as 3.9 pmol/min/µg (Carboxylesterase 3 (CES3, Homo sapiens, UniProt Q6UWW8); substrate; 50 µM, pH 8, 37 °C, enzyme purity 3%).
CC(C)C[C@H](NC(=O)CNC(=O)[C@H](CC(C)C)NC(=O)[C@@H]1CCCN1C(=O)CNC(=O)[C@H](Cc1ccccc1)NC(=O)OCC1c2ccccc2-c2ccccc21)C(=O)N[C@@H](CCCNC(=N)N)C(=O)N[C@@H](CO)C(=O)N[C@@H](CCCCN)C(=O)O has a hydrolysis product of 64% (MMP9 (Homo sapiens, UniProt P14780); substrate, HPLC; 500 µM, 72 h, pH 7.5, 37 °C).
[Ru+2].[Ru+2].c1cnc2c(c1)c1nc(-c3ccc(OCCOCCOCCOCCOc4ccc(-c5nc6c7cccnc7c7ncccc7c6[nH]5)cc4)cc3)[nH]c1c1cccnc12.c1cnc2c(ccc3nccnc32)n1.c1cnc2c(ccc3nccnc32)n1.c1cnc2c(ccc3nccnc32)n1.c1cnc2c(ccc3nccnc32)n1 has a Kd of 0.96 µM (T1, DNA hairpin, hairpin, TTTT loop; BLI; pH 7.04, Na+ 100 mM).
O=C1CSc2ccccc2N1CC(=O)N(c1ccc(F)cc1)c1ccc(F)cc1 gave an EC200 of 15 ± 3.3 µM (Proteasome subunit alpha type-2/Proteasome subunit alpha type-6 20S proteasome; proteolysis, activator, fluorogenic peptide; purified 20S proteasome; together with: Suc-LLVY-AMC, Z-LLE-AMC, Boc-LRR-AMC).
Under “fold shift of EC50”, CC(C)(Cn1cc(-c2cnc3cccnn23)nn1)c1c[nH]c2ccccc12 is recorded as 27.2 fold (Glucagon-like peptide 1 receptor (Rattus norvegicus, UniProt P32301); positive allosteric modulator, measured: cAMP; INS-1E; 10 µM, together with: GLP-1(7-36); baseline: GLP-1 alone).
O=C(O)Cc1ccc(O)cc1 — result for “minimum activating concentration”: 1 µM (C1-hpah; NADH oxidation, activator; pH 7, together with: 50 µM NADH).
With CN1C(=O)c2cccc3c2C1=Cc1ccccc1N3Cc1cccc(NC2CCN([11CH3])CC2)c1 the binding reduction was 40% (Bromodomain-containing protein 4, BD2 (Brd4, Mus musculus, UniProt Q9ESU6); tracer, autoradiography; mouse brain sections; concentration not given, together with: unlabeled blocker 10 µM).
For C[C@@]12CC[C@@H]3c4cc(I)c(O)cc4CC[C@H]3[C@@H]1CCC2=O, the inhibition was 37.8% (AKR1C1; enzyme activity, inhibitor, absorbance; 10 µM, pH 9).
Under binding, FC(F)C(F)(F)c1nc2ccccc2[nH]1 is recorded as “active” (DUSP3 (Homo sapiens, UniProt P51452); ligand-observed 19F NMR; concentration not given, together with: DUSP3 4 or 8 µM).
CC(C)CN(CC(C)C)C(=O)/C=C/C=C/c1ccc2c(c1)OCO2 gave an Emax of 572 ± 51% (Gabra2/Gabrb2, with γ2S subunit (Rattus norvegicus, UniProt P23576+P63138); GABA current potentiation, positive modulator, two-electrode voltage clamp; Xenopus oocytes expressing α2β2γ2S; together with: GABA EC3-7).
With O=C(O)Cc1ccccc1O the ΔH was -8.78 ± 0.91 kcal/mol (C1-hpah; ITC; pH 7).
For COc1cc(F)c(C(C)C)cc1C1=C(CN2C(=O)O[C@H](c3cc(C(F)(F)F)cc(C(F)(F)F)c3)[C@@H]2C)CC(C)(C)CC1, the maximum inhibition was 65.4% (Cholesteryl ester transfer protein (Homo sapiens, UniProt P11597); enzyme activity; healthy male subjects, plasma; oral, 25 mg single dose; baseline: baseline).
With CC(C)CC(NC(=O)C(NC(=O)NC(C(=O)O)C(C)C)C1CCNC(=N)N1)C(=O)NCCCNC(C(=O)O)C(OC1OC(CN)C(O)C1O)C1OC(n2ccc(=O)[nH]c2=O)C(O)C1O (stereo not drawn) the ΔH was -11.7 ± 0.6 kcal/mol (mraY (Aquifex aeolicus, UniProt O66465, T75A); ITC; T75A mutant).
For CC(=O)C12NC(C)(C)CC1(C)C(=O)C1=C2c2c(c3c4n2C(C)(C)CC2=C4C4(CC(C)(C)NC(C)(C4)C2=O)CC3(C)C)C(=O)C(C)(C)N1 (single isomer, unassigned; (-)), agonist activity read “inactive” (OPRK1 (Homo sapiens, UniProt P41145); agonist, cAMP; CHO; concentration not given).
CCCC[C@H](NC(=O)CNC(=O)CNC(=O)CN1CCN(CC(=O)O)CCN(CC(=O)O)CCN(CC(=O)O)CC1)C(=O)N[C@H]1CC(=O)NCCCC[C@@H](C(N)=O)NC(=O)[C@H](Cc2c[nH]c3ccccc23)NC(=O)[C@H](CCCNC(=N)N)NC(=O)[C@@H](Cc2ccccc2)NC(=O)[C@H](Cc2c[nH]cn2)NC1=O [gallium-67 labelled]: “tumour uptake reduction” about 96.3% (Mc1r (Mus musculus, UniProt Q01727); mouse B16-F1 tumour; dose not given, 2 h, together with: NDP-MSH 6.07 nmol).
Under binding, CC[C@H](C)[C@@H]1NC(=O)[C@H](Cc2cn(CCc3c(C)[nH]c4cc(Cl)cc(Cl)c34)nn2)NC(=O)[C@@H](CC(N)=O)NC(=O)[C@H](CCCNC(=N)N)NC(=O)[C@H](Cc2ccccc2)NC(=O)[C@@H](CC(C)C)NC(=O)[C@H](C)NC(=O)c2cc3cc(c2)C(=O)NC[C@@H](C(=O)N[C@@H](CCCCN)C(N)=O)NC(=O)[C@H](CCCNC(=N)N)NC(=O)[C@H](CCCNC(=N)N)NC(=O)[C@H](CCCNC(=N)N)NC(=O)[C@H](CCCNC(=N)N)NC(=O)[C@H](Cc2ccc4ccccc4c2)NC(=O)[C@H](Cc2ccccc2)NC(=O)[C@H](CCCCNC3=O)NC(=O)[C@H](CC(=O)O)NC1=O is recorded as “no binding” (PIN1 (Homo sapiens, UniProt Q13526); fluorescence anisotropy; concentration not given, together with: FITC-labelled peptide 100 nM).
CNCC=C(C)C=CC=CC=CC1=C(C)CCCC1(C)C has a melting temperature of 65.9 °C (Rhodopsin, apoprotein (opsin) (RHO, Bos taurus, UniProt P02699); regenerated pigment stability, thermal shift, BFC probe; ROS disk membranes).
For O=C(CCn1c2ccccc2c2ccc(Cl)cc21)N(c1ccc(F)cc1)c1ccc(F)cc1, the EC200 was 0.9 ± 0.5 µM (Proteasome subunit alpha type-2/Proteasome subunit alpha type-6 20S proteasome; proteolysis, activator, fluorogenic peptide; purified 20S proteasome; together with: Suc-LLVY-AMC, Z-LLE-AMC, Boc-LRR-AMC).
With Cc1ncsc1-c1ccc([C@@H]2CCCCNC(=O)C[C@@H]3N=C(c4ccc(cc4)OCCCCC(=O)N[C@@H](C(C)(C)C)C(=O)N4C[C@H](O)C[C@H]4C(=O)N2)c2c(sc(C)c2C)-n2c(C)nnc23)cc1 the degradation was 84% (Bromodomain-containing protein 4, long isoform (BRD4, Homo sapiens, UniProt O60885); degrader, immunoblotting, measured: BRD4 long isoform; PC-3; 100 nM, 24 h).
The IC50 ratio of CCCC[C@H](NC(=O)CNC(=O)[C@@H]1CCCN1C(=O)CNC(=O)[C@@H]1CCCN1C(=O)CNC(=O)[C@@H]1CCCN1C(=O)CNC(=O)[C@@H]1CCCN1C(=O)CNC(=O)[C@@H]1CCCN1C(=O)CNC(=O)[C@@H]1CCCN1C(=O)CNC(=O)[C@@H]1CCCN1C(=O)CNC(=O)[C@@H]1CCCN1C(=O)CNC(=O)[C@@H]1CCCN1C(=O)[C@H](Cc1c[nH]c2ccccc12)NC(=O)[C@H](CCCNC(=N)N)NC(=O)[C@@H](Cc1ccccc1)NC(=O)[C@H](Cc1c[nH]cn1)NC(=O)[C@H](CCC(=O)O)NC(=O)[C@H](CCCC)NC(=O)[C@H](CO)NC(C)=O)C(=O)NCC(=O)N[C@@H](Cc1c[nH]c2ccccc12)C(=O)N[C@@H](CCCC)C(=O)N[C@@H](CC(=O)O)C(=O)N[C@@H](Cc1ccccc1)C(N)=O is reported as 2 fold (CCKBR/MC4R (Homo sapiens, UniProt P32239+P32245); bivalent binding; cells expressing CCK2R and MC4R; together with: Eu-DTPA-CCK-8; baseline: single- over dual-expressing cells).
With CC[C@H](C)[C@H](NC(=O)CNC(C)=O)C(=O)N[C@@H](CCCNC(=N)N)C(=O)N[C@@H](CCC(=O)O)C(=O)N[C@@H](C)C(=O)N[C@H](C(=O)N[C@@H](CC(C)C)C(=O)N[C@@H](CCCNC(=N)N)C(=O)N[C@@H](C)C(=O)N[C@@H](Cc1c[nH]c2ccccc12)C(=O)N[C@@H](CCC(=O)O)C(=O)N[C@@H](CCCNC(=N)N)C(=O)N[C@@H](CCCNC(=N)N)C(=O)N[C@@H](Cc1ccc(O)cc1)C(=O)NCC(=O)N[C@@H](Cc1ccccc1)C(=O)N1CCC[C@H]1C(=O)N[C@@H](CCCNC(=N)N)C(=O)N1CCC[C@H]1C(=O)N[C@@H](CC(C)C)C(=O)N[C@@H](CCCNC(=N)N)C(=O)N[C@@H](CO)C(=O)N[C@@H](CCC(=O)O)C(N)=O)[C@@H](C)O the binding stoichiometry was 0.93 ± 0.01 (Antirepressor protein CarS (carS, Myxococcus xanthus, UniProt Q06911); ITC; concentration not given, pH 7.5, 20 °C).
Nc1ncnc2c1ncn2[C@@H]1O[C@H](CO)[C@@H](O[C@H]2O[C@H](CO)[C@@H](OP(=O)(O)O)[C@H](OP(=O)(O)O)[C@H]2O)[C@H]1O gave a Hill coefficient of 1 ± 0.1 (Inositol 1,4,5-trisphosphate-gated calcium channel ITPR1, N-terminal region (Itpr1, Rattus norvegicus, UniProt P29994, del318-332); [3H]IP3 competition binding; N-terminal fragment).
The remaining activity of CC(C)C[C@H](NC(=O)[C@H](CC(C)C)NC(=O)[C@H](CCCNC(=N)N)NC(=O)[C@@H](N)CS)C(=O)O is reported as 84.2% (PPO3 (Agaricus bisporus, UniProt C7FF04); enzyme activity, inhibitor; 50 µM).
NS(=O)(=O)c1ccc(N2N=C(C(F)(F)F)CC2c2ccc(F)cc2F)cc1 (stereo not drawn) has an IC80 of 100 µM (Prostaglandin G/H synthase 1 (Canis lupus familiaris, UniProt Q8HZR1); TXB2 formation, inhibitor; clotting dog whole blood; 1 h, 37 °C).
The inhibition of COc1ccc2c(c1Br)CC[C@@H]1[C@@H]2CC[C@@]2(C)C(=O)CC[C@@H]12 is reported as 12.5% (AKR1C1; enzyme activity, inhibitor, absorbance; 100 µM, pH 9).

A few entries again:
With O=C(O)Cc1ccccc1O the ΔH was -8.78 ± 0.91 kcal/mol (C1-hpah; ITC; pH 7).
Nc1ncnc2c1ncn2[C@@H]1O[C@H](CO)[C@@H](O[C@H]2O[C@H](CO)[C@@H](OP(=O)(O)O)[C@H](OP(=O)(O)O)[C@H]2O)[C@H]1O gave a Hill coefficient of 1 ± 0.1 (Inositol 1,4,5-trisphosphate-gated calcium channel ITPR1, N-terminal region (Itpr1, Rattus norvegicus, UniProt P29994, del318-332); [3H]IP3 competition binding; N-terminal fragment).
CC(=O)N[C@@H](CCCNC(=N)N)C(=O)N[C@@H](CCCCN)C(=O)N[C@@H](CCCCN)C(=O)N[C@@H](Cc1ccc(O)cc1)C(=O)N[C@@H](CCCCN)C(=O)N[C@@H](Cc1ccccc1)C(=O)N[C@@H](CC(N)=O)C(=O)N[C@@H](CCC(=O)O)C(=O)N[C@@H](CC(=O)O)C(=O)N[C@H](C(=O)N[C@@H](CCC(=O)O)C(=O)N[C@@H](CCCNC(=N)N)C(=O)N[C@@H](CCCNC(=N)N)C(=O)N[C@@H](CCCNC(=N)N)C(=O)N[C@@H](Cc1ccccc1)C(=O)N[C@@H](CC(C)C)C(N)=O)[C@@H](C)O gave a Km of 393 ± 40 µM (EEF2K (Homo sapiens, UniProt O00418); substrate).
With CC[C@H](C)[C@H](NC(=O)CNC(C)=O)C(=O)N[C@@H](CCCNC(=N)N)C(=O)N[C@@H](CCC(=O)O)C(=O)N[C@@H](C)C(=O)N[C@H](C(=O)N[C@@H](CC(C)C)C(=O)N[C@@H](CCCNC(=N)N)C(=O)N[C@@H](C)C(=O)N[C@@H](Cc1c[nH]c2ccccc12)C(=O)N[C@@H](CCC(=O)O)C(=O)N[C@@H](CCCNC(=N)N)C(=O)N[C@@H](CCCNC(=N)N)C(=O)N[C@@H](Cc1ccc(O)cc1)C(=O)NCC(=O)N[C@@H](Cc1ccccc1)C(=O)N1CCC[C@H]1C(=O)N[C@@H](CCCNC(=N)N)C(=O)N1CCC[C@H]1C(=O)N[C@@H](CC(C)C)C(=O)N[C@@H](CCCNC(=N)N)C(=O)N[C@@H](CO)C(=O)N[C@@H](CCC(=O)O)C(N)=O)[C@@H](C)O the binding stoichiometry was 0.93 ± 0.01 (Antirepressor protein CarS (carS, Myxococcus xanthus, UniProt Q06911); ITC; concentration not given, pH 7.5, 20 °C).
